{"data": "Results gathered from unrelated publications", "note": "Protocols differ between the studies behind these lines."}
{"Compound": "Nc1nc2cc(CC[C@H]3C[C@@H](n4ccc5c(N)ncnc54)[C@H](O)[C@@H]3O)ccc2cc1Br", "cell line": "A-427", "observed": "cell growth or viability", "method": "MTT", "time": "6 days", "GI50": "1.9 nM"}
{"Compound": "Nc1ncc(-c2cnn(C3CCNCC3)c2)cc1-c1nc2ccc(O)cc2o1", "cell line": "HEL 92.1.7", "observed": "cell growth or viability", "time": "72 h", "GI50": "2690 nM"}
{"Compound": "C1=[N+]2CCCC[N+]3=Cc4ccc5[n]4[Au-]23[n]2c1ccc2-c1nc2ccccc2nc1-5.F[P-](F)(F)(F)(F)F", "cell line": "NCI60 leukemia cell lines", "notes": "mean of cell lines", "GI50": "1000 nM"}
{"Compound": "CC[C@H](C)[C@@H]([C@@H](CC(=O)N1C[C@@H](N=[N+]=[N-])C[C@H]1[C@H](OC)[C@@H](C)C(=O)N[C@@H](Cc1ccccc1)C(=O)OC)OC)N(C)C(=O)[C@@H](NC(=O)[C@@H](NC)C(C)C)[C@H](C)N=[N+]=[N-]", "cell line": "SW780", "observed": "cell growth or viability", "method": "resazurin", "GI50": "2.4 nM"}
{"Compound": "COC1CN([C@H]2CC[C@H]([C@@]3(C)Oc4c(Cl)cc(C(=O)NCc5c(SC)cc(C)[nH]c5=O)c(C)c4O3)CC2)C1", "cell line": "JMSU-1", "observed": "cell growth or viability", "method": "ATP luminescence", "time": "12 days", "GI50": "> 1000 nM"}
{"Compound": "CC(=O)O[C@H]1C2=C(C(=O)C(O)=C(C(C)C)C2=O)[C@@]2(C)CCCC(C)(C)[C@@H]2[C@@H]1O", "cell line": "MCR5", "observed": "cell growth or viability", "method": "MTT", "time": "72 h", "GI50": "8600 nM"}
{"Compound": "COc1cccc2c(NCc3ccccc3)nc(Nc3cccc(F)c3)nc12", "cell line": "HCT-15", "observed": "cell growth or viability", "time": "72 h", "GI50": "3700 nM"}
{"Compound": "CC(Cc1ccc(Cl)cc1)=C(c1ccc(Cl)cc1)c1ccc(OCCN(C)C)cc1", "cell line": "U-251", "observed": "cell growth or viability", "method": "SRB", "GI50": "3720 nM"}
{"Compound": "FC(F)(F)c1ccc(CNc2nc(NCc3ccccc3)c3ccccc3n2)cc1", "cell line": "HCT-15", "observed": "cell growth or viability", "time": "24 h", "GI50": "3400 nM"}
{"Compound": "CC(=C(c1ccc(O)cc1)c1ccc(Cl)cc1)c1ccc(Cl)cc1", "cell line": "NCI-60 cell lines", "method": "NCI five-dose screen", "notes": "mean over 60 lines", "GI50": "2510 nM"}
{"Compound": "CC[C@H](C)[C@@H]([C@@H](CC(=O)N1C[C@@H](N=[N+]=[N-])C[C@H]1[C@H](OC)[C@@H](C)C(=O)N[C@@H](Cc1ccccc1)C(=O)OC)OC)N(C)C(=O)[C@@H](NC(=O)[C@@H](NC)C(C)C)C(C)C", "cell line": "SW780", "observed": "cell growth or viability", "method": "resazurin", "GI50": "1.9 nM"}
{"Compound": "CCC(=C(c1ccc(Cl)cc1)c1ccc(OCCCN(C)C)cc1)c1ccc(OC)cc1", "cell line": "HCC 2998", "observed": "cell growth or viability", "method": "SRB", "GI50": "8740 nM"}
{"Compound": "CC[C@H](C)[C@H]1[C@H](OC)CC(=O)N2C[C@H](C[C@H]2[C@H](OC)[C@@H](C)C(=O)N[C@@H](Cc2ccccc2)C(=O)OC)NC(=O)CCCC(=O)N[C@@H](C)[C@H](NC(=O)[C@@H](NC)C(C)C)C(=O)N1C", "cell line": "SW780", "observed": "cell growth or viability", "method": "resazurin", "GI50": "> 1000 nM"}
{"note": "Repeated from above:"}
{"Compound": "COC1CN([C@H]2CC[C@H]([C@@]3(C)Oc4c(Cl)cc(C(=O)NCc5c(SC)cc(C)[nH]c5=O)c(C)c4O3)CC2)C1", "cell line": "JMSU-1", "observed": "cell growth or viability", "method": "ATP luminescence", "time": "12 days", "GI50": "> 1000 nM"}
{"Compound": "C1=[N+]2CCCC[N+]3=Cc4ccc5[n]4[Au-]23[n]2c1ccc2-c1nc2ccccc2nc1-5.F[P-](F)(F)(F)(F)F", "cell line": "NCI60 leukemia cell lines", "notes": "mean of cell lines", "GI50": "1000 nM"}
